{"data": "Experimental data of several laboratories", "note": "A part holds a random share of what one study measured. Substitutions count along the parent as printed."}
{"data": "Series 1", "target": "Ras GTPase-activating protein-binding protein 1, C-terminal RGG region (G3BP1, Homo sapiens, UniProt Q13283)", "method": "RNA Bind-n-Seq", "form": "RNA", "matrix": "in vitro", "concentration": "1 µM", "setting": "whole 134-nt RNA, ends assumed", "with": "150 mM KCl", "relative to": "input library", "reading": "higher = stronger binding", "all sequences stand within": "GGGAGUUCUACAGUCCGACGAUC … UGGAAUUCUCGGGUGUCAAGG", "sequence of UniProt Q13283 (whole entry, looked up)": "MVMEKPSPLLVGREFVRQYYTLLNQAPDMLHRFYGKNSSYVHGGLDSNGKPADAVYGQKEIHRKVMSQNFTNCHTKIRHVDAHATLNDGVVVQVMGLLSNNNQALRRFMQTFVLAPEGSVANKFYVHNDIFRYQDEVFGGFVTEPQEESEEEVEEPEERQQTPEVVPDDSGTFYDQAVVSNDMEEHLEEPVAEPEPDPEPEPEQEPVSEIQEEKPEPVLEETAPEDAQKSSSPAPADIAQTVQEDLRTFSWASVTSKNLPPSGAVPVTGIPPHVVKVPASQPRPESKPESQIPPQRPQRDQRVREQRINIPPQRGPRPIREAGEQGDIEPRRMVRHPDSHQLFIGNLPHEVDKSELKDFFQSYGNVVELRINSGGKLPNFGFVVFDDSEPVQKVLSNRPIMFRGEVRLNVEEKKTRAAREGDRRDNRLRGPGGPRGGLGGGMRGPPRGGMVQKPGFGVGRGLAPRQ"}
{"Oligonucleotide": "UCAAGUCCUGUGCUACACAUCGUAUGUACCGAAUCGGGAGGGUUUUUGGGUGGGAAAGUAUUAUGUUACGCCGUUCGGAUCUGCACUUCC", "log2 enrichment": 1.14}
{"Oligonucleotide": "AAGUCCUGUGCUACACAUCGUAUGUACCGAAUCAAACCCCCAAAUUUAAACCCAAAAAAGUAUUAUGUUACGCCGUUCGGAUCUGCACUU", "log2 enrichment": -0.967}
{"Oligonucleotide": "CCUCAAGUCCUGUGCUACACAUCGUAUGUACCGAAUCGGUGGUGGAAAAAGGAAAGUAUUAUGUUACGCCGUUCGGAUCUGCACUUCCAG", "log2 enrichment": -0.579}
{"Oligonucleotide": "UAACUUUAGAGGAGGAUCUGAUGGAUAUGGCAGUGGACGUGGAUUUGGGGAUGGCUAUAAUGGGUAUGGAGGAGGACCUGGAGGUGGAAA", "log2 enrichment": -0.549}
{"Oligonucleotide": "UCAAGUCCUGUGCUACACAUCGUAUGUACCGAAUCGGGUGGGAAAAAGGGUGGGAAAGUAUUAUGUUACGCCGUUCGGAUCUGCACUUCC", "log2 enrichment": 1.46}
{"Oligonucleotide": "CCUCAAGUCCUGUGCUACACAUCGUAUGUACCGAAUCGGAAGGGAAGGAAGGGAAAGUAUUAUGUUACGCCGUUCGGAUCUGCACUUCCA", "log2 enrichment": -1.5}
{"Oligonucleotide": "UGGCCCUGGUGGCAUGCGGGGAGGAAGAGGUGGCCUCAUGGAUCGUGGUGGUCCCGGUGGAAUGUUCAGAGGUGGCCGUGGUGGAGUCAG", "log2 enrichment": 3.6}
{"Oligonucleotide": "CUGUGCUACACAUCGUAUGUACCGAAUCGGGGAAAAAAAGGGGUUUGGGGUUUUUUUGGGGAAAGUAUUAUGUUACGCCGUUCGGAUCUG", "log2 enrichment": 1.02}
{"Oligonucleotide": "CAAGUCCUGUGCUACACAUCGUAUGUACCGAAUCGGUUUUUUUGGUUUUUGGUGGAAAGUAUUAUGUUACGCCGUUCGGAUCUGCACUUC", "log2 enrichment": -1.72}
{"Oligonucleotide": "CACAGCCAACACGCACCCACACAGACACAGAGGGAAGGGGUUGGGAUGGGGACAGGGUGCACAGCAGGGCGGGGUAGGACCCCAGCCCCU", "log2 enrichment": -0.116}
{"Oligonucleotide": "UGGCUGCAGGCGCACCCCGGCAGGAUUUUGCCUCCGCUGUCGCCCCCGCAGCACCGCUACUCGGAGGGCGAGCGGACCUCCCUGGAGAAG", "log2 enrichment": -0.945}
{"Oligonucleotide": "CUCAAGUCCUGUGCUACACAUCGUAUGUACCGAAUCGGGAGGGAGGGGAGGGGAAAGUAUUAUGUUACGCCGUUCGGAUCUGCACUUCCA", "log2 enrichment": 3}
{"Oligonucleotide": "UAACUUUAGAGGAGGAUCUGAUGGAUAUGGCAGUGGACGUGGAUUUGGGGAUGGCUAUAAUGGGUAUGGAGGAGGUCCUGGAGGUGGCAA", "log2 enrichment": -0.504}
{"Oligonucleotide": "CCUGUGCUACACAUCGUAUGUACCGAAUCGGAAAAAAAGGAAAAAAAGGGAAAAAAAGGGAAAGUAUUAUGUUACGCCGUUCGGAUCUGC", "log2 enrichment": -2.07}
{"data": "Series 2", "target": "CCND1, cyclin fold, Cln2 fusion (human)", "method": "yeast growth competition, sequencing", "matrix": "yeast", "setting": "weak parent motif", "relative to": "not given", "reading": "higher = stronger binding", "starting sequence": "WEE1 docking peptide (human); HKTFRKLRLFDTP"}
{"Substitution": "F10M", "normalised enrichment score": -0.507}
{"Substitution": "H1T", "normalised enrichment score": -0.291}
{"Substitution": "F4V", "normalised enrichment score": 0.134}
{"Substitution": "F4N", "normalised enrichment score": 0.178}
{"Substitution": "R8N", "normalised enrichment score": -0.325}
{"Substitution": "D11Y", "normalised enrichment score": -0.361}
{"Substitution": "T12K", "normalised enrichment score": 0.0833}
{"Substitution": "K6S", "normalised enrichment score": -0.06}
{"Substitution": "F4S", "normalised enrichment score": 0.0296}
{"Substitution": "L7P", "normalised enrichment score": 0.403}
{"Substitution": "H1P", "normalised enrichment score": -0.263}
{"Substitution": "L9Y", "normalised enrichment score": -0.0468}
{"Substitution": "R8T", "normalised enrichment score": -0.0135}
{"Substitution": "P13E", "normalised enrichment score": -0.337}
{"Substitution": "F10V", "normalised enrichment score": -0.971}
{"Substitution": "F4P", "normalised enrichment score": -0.206}
{"Substitution": "T12A", "normalised enrichment score": 0.073}
{"Substitution": "L7C", "normalised enrichment score": 0.482}
{"Substitution": "D11G", "normalised enrichment score": -0.547}
{"Substitution": "L7Y", "normalised enrichment score": -0.0784}
{"Substitution": "K2L", "normalised enrichment score": 0.388}
{"Substitution": "T3P", "normalised enrichment score": 0.447}
{"Substitution": "D11C", "normalised enrichment score": 0.803}
{"Substitution": "F10P", "normalised enrichment score": -0.209}
{"Substitution": "K2M", "normalised enrichment score": -0.119}
{"data": "Series 3", "target": "Interferon regulatory factor 3, full length, phosphomimetic (IRF3, Homo sapiens, UniProt Q14653, residues 1-427, S386D/S396D/S398D/S402D/T404D/S405D)", "method": "protein-binding microarray", "form": "double-stranded DNA, one strand shown", "matrix": "in vitro", "concentration": "2540 nM top", "setting": "60-bp whole probe", "with": "salmon DNA 0.4 mg/ml", "relative to": "random background probes", "reading": "higher = stronger binding", "all sequences stand within": "GCCTAGCAC … GTCTTGATTCGCTTGACGCTGCTG", "sequence of UniProt Q14653 (whole entry, unmodified, looked up)": "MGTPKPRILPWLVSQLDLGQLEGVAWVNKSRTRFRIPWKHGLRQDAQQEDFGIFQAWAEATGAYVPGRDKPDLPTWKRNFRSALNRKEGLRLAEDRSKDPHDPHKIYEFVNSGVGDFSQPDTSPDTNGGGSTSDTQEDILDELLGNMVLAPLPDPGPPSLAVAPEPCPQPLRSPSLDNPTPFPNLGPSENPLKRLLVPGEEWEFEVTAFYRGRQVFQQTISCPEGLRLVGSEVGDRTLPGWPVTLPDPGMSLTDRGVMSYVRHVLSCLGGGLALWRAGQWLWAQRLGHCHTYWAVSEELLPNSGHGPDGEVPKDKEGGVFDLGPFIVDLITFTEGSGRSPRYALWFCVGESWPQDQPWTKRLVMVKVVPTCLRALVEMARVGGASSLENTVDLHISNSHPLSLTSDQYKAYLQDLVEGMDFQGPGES"}
{"Oligonucleotide": "TCATTTTTTTACTTCGGACTGTGCTAG", "fitted relative affinity [z-score]": 1.06}
{"Oligonucleotide": "CTTTCTTTATGCACTCTTTACGTGCTA", "fitted relative affinity [z-score]": 5.21}
{"Oligonucleotide": "GACGAACTCGGGACTGGAGACGTGCTA", "fitted relative affinity [z-score]": -0.42}
{"Oligonucleotide": "TTAGATATCAGACCGGATTAGTGCTAG", "fitted relative affinity [z-score]": 0.171}
{"Oligonucleotide": "GACCGTTTCGGTTTCGGGACGTGCTAG", "fitted relative affinity [z-score]": 10}
{"Oligonucleotide": "TCTCTTTTGGCTTTCCTTTAGTGCTAG", "fitted relative affinity [z-score]": 1.87}
{"Oligonucleotide": "CCTAGTTTTACTTTCTATGTGTGCTAG", "fitted relative affinity [z-score]": 4.24}
{"Oligonucleotide": "TTAGGTCTCCTTTTCCTTTGGTGCTAG", "fitted relative affinity [z-score]": 4.49}
{"Oligonucleotide": "TTAGGACTGGGTCTCGGTTTGTGCTAG", "fitted relative affinity [z-score]": -0.476}
{"Oligonucleotide": "TTAGAACTGGGGACTGGGTTAGTGCTA", "fitted relative affinity [z-score]": -0.966}
{"Oligonucleotide": "TATGGTATTTTTTTGTAATCGTGCTAG", "fitted relative affinity [z-score]": 0.268}
{"Oligonucleotide": "TCAGATTTCCACTTTCTACTGTGCTAG", "fitted relative affinity [z-score]": 2.55}
{"Oligonucleotide": "TTTCGTATCTTCATTGTCATGTGCTAG", "fitted relative affinity [z-score]": 5.89}
{"Oligonucleotide": "TTAGATATCGGGTTTCGATTCGTGCTA", "fitted relative affinity [z-score]": 3.17}
{"Oligonucleotide": "GGCGGTCTCCTTATCCTGACGTGCTAG", "fitted relative affinity [z-score]": 2.82}
{"Oligonucleotide": "TCACCACTTTCTTTTGCACTGTGCTAG", "fitted relative affinity [z-score]": 1.51}
{"Oligonucleotide": "TCTGTTTCTGATATGGTATGGTGCTAG", "fitted relative affinity [z-score]": 4.11}
{"Oligonucleotide": "TCATTTCTAATTTACTTACTGTGCTAG", "fitted relative affinity [z-score]": 2.65}
{"data": "Series 4", "target": "RNA binding protein fox-1 homolog 2, RRM domain, GST-SBP tag (RBFOX2, Homo sapiens, UniProt O43251-10, residues 100-194)", "method": "RNA Bind-n-Seq", "form": "RNA", "matrix": "in vitro", "concentration": "365 nM", "setting": "natural RNA segment, single round, ends assumed", "relative to": "no-protein control", "reading": "higher = stronger binding", "all sequences stand within": "GGGAGUUCUACAGUCCGACGAUC … UGGAAUUCUCGGGUGCCAA", "Target sequence (chain)": "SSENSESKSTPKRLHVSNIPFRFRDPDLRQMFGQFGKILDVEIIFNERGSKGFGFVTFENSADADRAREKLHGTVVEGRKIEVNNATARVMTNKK"}
{"Oligonucleotide": "UAUUUAUCUUGUACAUAUGUAUUUUGAAAUCUUUUAAACCUGAAAAAUAAAUAGUCAUUUAAUGUUGGUAUGUGUUUAUCCUGAAUGUGUGUCUGGGAGUAAACUGGCCA", "RBNS enrichment (R)": 1.24}
{"Oligonucleotide": "CAUUCAGCUUCAGUCUUUACAUACCAUGAAUAAAACAUUAAAACAUCAUAUGGAGAAGUUUACAUGGUGAUUGUUCACCUGCAGUACUGUGGAGUUUUAACAUUUUGUCC", "RBNS enrichment (R)": 0.465}
{"Oligonucleotide": "AGAUAUAAGUACGGUCAAAAAACAAAACUGUGGGACUUACAUUUAUUUUCUAUAGUAAUCUGUUGUACAUUUUAAGAAGUAAAACUAGGAAUUUAGGAGUGAUGUGUGAC", "RBNS enrichment (R)": 1.08}
{"Oligonucleotide": "UGGUACACUGUGACAGUGGCUCUAGGGGAGGAGGCCAGGAGCCUGGCCACAGUGUUGGCUGGACUCUGACUCAGUGGCCCAGCCUGCAGCUGGAAGGACACAGGUUGCCG", "RBNS enrichment (R)": 0.932}
{"Oligonucleotide": "UAGGCCUUGAAGAGGCCGAGCUUUCUCCCCCCAAUUGGUGGAGGACAGUCCAGAGAUGAGCAGAAAUCUUAAAUUCCUUCCUGAUCCAGCCUCCACAUGUGGCCUGCCCC", "RBNS enrichment (R)": 0.501}
{"Oligonucleotide": "CCAAUGACAUAAAUACAUACAAGACACACAACUAAAAUGUCAUGUUAUUAACAGUUAUUAGGUUGUCAUUUAAAAAUAAAGUUCCUUUAUAUUUCUGUCCCAUCAGGAAA", "RBNS enrichment (R)": 0.323}
{"Oligonucleotide": "UUAAAUUUCACAAAGUCAUGAGGGUAAAUGGAGAAAAUAUUUCUGGGAUUACAAUGAAUGUAAGCCCAAAUUGUGGAAUUGCCAGUAACCUGGAUGGGGAAAAGCAUUUC", "RBNS enrichment (R)": 0.646}
{"Oligonucleotide": "UUUCGCCAUAUUGGCCAGGCUGGUCUUGAACUCCUGACCUCGUGAUCCACCCGCCUCACCCUCCCAAAAUGCUGGGAUUACAGGCGUAAGCCACUGCACCUGGCGGGGUC", "RBNS enrichment (R)": 0.268}
{"Oligonucleotide": "CAUCCCUAGCUCCUGCAAGAGAAAGUCCAGGCUUUGGGAGCAGAUGGCAGAGGGAGGGAGUAAAGAAAGAGCCAAAAAUGAUGAUCCACAGCUUAUAGUAGCAGUUAAAC", "RBNS enrichment (R)": 0.374}
{"Oligonucleotide": "AAAGAAGGUCUAAGAGCUGAUAUUUGCCAAAGUGAUAGAAGAGUUGUUUUUUCCUCUCUACUACCAAGCUUUAAGACAUUAAAAGAAGUCUAGUGUAUUUGAAUAUUUUA", "RBNS enrichment (R)": 0.471}
{"Oligonucleotide": "CAAGGAGCUAAUUAUUAAUAACAAUCAUUGCACACUGAGUCUUAGCGUUUCUGAUGGAAACAGUUUGGAUUGUAUAAUAACGCCAAGCCCAGUUGUAGUCGUUUGAGUGC", "RBNS enrichment (R)": 0.642}
{"Oligonucleotide": "GGUCCAUCUUUUACAUCUGGUACACACAACAGACGCUCAGUUGUUCUUAACCACUUUUGUCAUUUGUUUUUUGGAGUAGUUUUGAAAAGUGUUUUAUAUUGAGUGCACUU", "RBNS enrichment (R)": 0.588}
{"note": "For quick reference, copied from above (series 2):"}
{"Substitution": "L7P", "normalised enrichment score": 0.403}
{"Substitution": "H1T", "normalised enrichment score": -0.291}
{"Substitution": "F10V", "normalised enrichment score": -0.971}
{"Substitution": "D11G", "normalised enrichment score": -0.547}
{"Substitution": "P13E", "normalised enrichment score": -0.337}
{"Substitution": "K2L", "normalised enrichment score": 0.388}
{"Substitution": "F4N", "normalised enrichment score": 0.178}
{"Substitution": "R8T", "normalised enrichment score": -0.0135}
{"Substitution": "T3P", "normalised enrichment score": 0.447}
{"Substitution": "F10M", "normalised enrichment score": -0.507}
{"Substitution": "F10P", "normalised enrichment score": -0.209}
